Experimental data of several laboratories.
Lines come from different studies, so protocols differ. Numbers after ± are the reported error.

CC(C)C[C@H](NC(=O)[C@H](Cc1ccc(O)cc1)NC(=O)[C@H](Cc1c[nH]cn1)NC(=O)[C@H](CC(=O)O)NC(=O)[C@H](CC(C)C)NC(=O)[C@H](C)NC(=O)[C@H](CC(C)C)NC(=O)CNC(=O)CNC(=O)[C@@H](NC(=O)[C@@H](NC(=O)[C@H](CCCCN)NC(=O)CNC(=O)[C@@H](NC(=O)[C@H](CCCCN)NC(=O)[C@H](CCCCN)NC(=O)[C@H](C)NC(=O)[C@H](CCCCN)NC(=O)[C@H](CCCNC(=N)N)NC(=O)[C@H](Cc1ccccc1)NC(=O)[C@@H](NC(=O)[C@H](CO)NC(=O)[C@H](CCCCN)NC(=O)[C@H](Cc1c[nH]c2ccccc12)NC(=O)CN)C(C)C)C(C)C)[C@@H](C)O)C(C)C)C(N)=O — acute toxic concentration (zebrafish embryos; 1 h, 4, 28, 52 hpf): 5 µg/mL
COC(=O)C[C@H](NC(=O)[C@H](C)NC(=O)[C@@H](NC(=O)[C@H](CC(=O)OC)NC(=O)[C@@H](NC(=O)c1ccc2ccccc2n1)C(C)C)C(C)C)C(=O)COc1c(F)cccc1F — core body temperature (rat pups; 1 mg/kg, 3 h): 36.4 ± 0.67 °C
C[C@@H](O)[C@H](NC(=O)[C@H](CCCCN)NC(=O)[C@H](Cc1c[nH]c2ccccc12)NC(=O)CN)C(=O)N[C@@H](CCCNC(=N)N)C(=O)NC(C)(C)C(=O)N[C@@H](CCCNC(=N)N)C(=O)NC(C)(C)C(=O)N[C@H](C(=O)N[C@@H](CO)C(=O)N[C@@H](Cc1c[nH]cn1)C(=O)N[C@@H](Cc1ccc(O)cc1)C(=O)NCC(=O)O)[C@@H](C)O — mean corpuscular haemoglobin (C57BL/6 mouse, blood; intravenous, 50 mg/kg, 10 h): 11.1 to 12.7 pg
CC(C)[C@H](NC(=O)CNC(=O)[C@H](CCC(N)=O)NC(=O)[C@H](C)N)C(=O)O — subjects with Possibly related AE (healthy male volunteers; intravenous, 90 mg/kg/h, 2 h, together with: LPS 2 ng/kg): 0%
C1=CCCC=CCC1.F[P-](F)(F)(F)(F)F.[Pt+][c]1ccccc1P(=Nc1ccccc1)(c1ccccc1)c1ccccc1 — stability time (UV-vis spectroscopy; DMSO:PBS 1:99): 24 h
CC[C@H](C)C(=O)N1CCC(NC(=O)Nc2ccc(OC(F)(F)F)c(F)c2)CC1 — subjects with related TEAE (healthy volunteers; oral, 2 mg single dose): 0%
O.[C-]#[O+].[C-]#[O+].[C-]#[O+].[Re+].c1cnc2c(c1)ccc1cccnc12 — capacity factor (RP-HPLC C18 column, item: free diimine ligand; MeCN:water 40:60, 0.1% TFA; isocratic elution): 0.44
C[C@H]1N=C(c2ccccc2F)c2cc(Br)ccc2-n2cnc(C(=O)NCCS(=O)(=O)O)c21 — cumulative excretion (LC-MS/MS; Swiss Webster mouse, female, urine; oral, 750 µg parent drug, 0 to 24 h): 0.2 ± 0.04%
CC(C)[C@H](NC(=O)CNC(=O)[C@H](CCC(N)=O)NC(=O)[C@H](C)N)C(=O)O — definitely drug-related adverse events (healthy human; intravenous, 3 mg/kg single dose; baseline: subjects): 0%
CCCCCCCC/C=C\CCCCCCCCOP(O)(O)=S.N — Cmax (mouse, male, nonirradiated; sc, dose not given): 476 ng/mL

A few entries again:
CC(C)[C@H](NC(=O)CNC(=O)[C@H](CCC(N)=O)NC(=O)[C@H](C)N)C(=O)O — subjects with Possibly related AE (healthy male volunteers; intravenous, 90 mg/kg/h, 2 h, together with: LPS 2 ng/kg): 0%
